Results pooled from the literature.
Lines come from different studies, so protocols differ. ± marks the error that the study gave.

For `CC[C@H](C)[C@H](NC(=O)CN)C(=O)N[C@@H](CC(C)C)C(=O)N[C@@H](CCCCN)C(=O)N[C@@H](Cc1ccccc1)C(=O)N[C@@H](CC(C)C)C(=O)N[C@@H](CCC(=O)O)C(=O)N[C@@H](CO)C(=O)N[C@@H](C)C(=O)N[C@@H](CCCCN)C(=O)N[C@@H](CCCCN)C(=O)N[C@@H](Cc1c[nH]c2ccccc12)C(=O)N[C@@H](CC(C)C)C(=O)N[C@@H](CCC(=O)O)C(=O)N[C@@H](C)C(=O)N[C@@H](Cc1ccccc1)C(=O)N[C@@H](CC(C)C)C(=O)N[C@@H](C)C(=O)N[C@@H](CCC(=O)O)C(=O)N[C@H](C(=O)N[C@@H](CCSC)C(=O)N[C@@H](CC(N)=O)C(=O)N[C@@H](CO)C(=O)O)[C@@H](C)CC`, the time constant was 13.5 s (carboxyfluorescein release, stopped-flow fluorescence; POPC vesicles 50 µM; up to 1 µM, pH 7.5, peptide/lipid 1:50).
`CC(C)C[C@@H]1NC(=O)[C@H](C(C)C)NC(=O)[C@H](CO)NC(=O)CNC(=O)CNC(=O)[C@H](CCCNC(=N)N)NC(=O)[C@@H]2CCCN2C(=O)[C@@H](NC(=O)CC[C@H](NC(=O)c2ccc(N(C)Cc3cnc4nc(N)nc(N)c4n3)cc2)C(=O)O)C(C)(C)SSC[C@@H](C(=O)O)NC(=O)CNC(=O)[C@H]([C@@H](C)O)NC(=O)[C@H](C(C)C)NC1=O` — result for “inflammation score reduction”: 56% (rat adjuvant arthritis; iv, 5 mg/kg once daily, day 14; relative to: arthritis vehicle, direction not given).
`N=C(N)NCCC[C@H](NC(=O)[C@@H]1CCCN1C(=O)[C@@H]1CSSC[C@H](N)C(=O)N[C@@H](Cc2ccc(O)cc2)C(=O)N[C@@H](Cc2ccccc2)C(=O)N[C@@H](CCC(N)=O)C(=O)N[C@@H](CC(N)=O)C(=O)N1)C(=O)NCC(N)=O` — result for “peak mean arterial pressure change”: about 15 mmHg (male Sprague-Dawley rat, conscious; intra-arterial, 5 ng/kg; relative to: pre-injection baseline).
The inhibition of `O=c1c(O)c(-c2cc(O)ccc2O)oc2cc(O)cc(O)c12` is reported as 49.7 ± 3.01% (DPPH radical scavenging; 62.5 µg/mL).
`CN(C)CCN(Cc1ccccc1)C(=O)c1cc(-c2ccc(F)cc2)n2nc(C(C)(C)C)cc2n1` — result for fibrinogen infiltration: “decreased” (Tg6799 mouse, cortex; dose not given, four months).
`CC[C@H](C)[C@H](NC(=O)[C@@H](NC(=O)[C@H](CC(=O)O)NC(C)=O)[C@@H](C)O)C(=O)N[C@@H](CCCNC(=N)N)C(=O)N[C@@H](CC(C)C)C(=O)N[C@@H](CC(C)C)C(=O)N[C@@H](Cc1ccccc1)C(=O)N[C@@H](CCC(N)=O)C(=O)N[C@@H](CC(C)C)C(=O)N[C@@H](CCSC)C(=O)N[C@@H](CCCNC(=N)N)C(=O)N1CCC[C@H]1C(=O)N1CCC[C@H]1C(=O)N[C@@H](CC(N)=O)C(=O)N[C@@H](CCSC)C(=O)N[C@H](C(=O)N1CCC[C@H]1C(=O)N[C@@H](C)C(=O)N[C@H](C(=O)N[C@@H](CC(N)=O)C(=O)N[C@@H](C)C(N)=O)C(C)C)[C@@H](C)O`: “α4β7+ CCR9− cells” 63.3% (item: HA-02 tetramer; antigen-experienced tetramer+ CD4 T cells, healthy adults, HLA-DRB1*0101; dose not given).
For `CCCCCCCCC=CCCCCCCCC(=O)OCC1OC(n2ccc(N)nc2=O)C(F)(F)C1O` (stereo not drawn), antitumour activity read “inactive” (xenograft; mice, NCI-H146 xenograft; ip, MTD).
For `O=C(N[C@@H](Cc1coc2ccccc12)B(O)O)[C@@H]1C[C@H]2CC[C@@H]1O2`, “median survival prolongation” read 110 days (mouse, scaffold MM1.S bone marrow model; oral, 10 mg/kg once daily).
`Cc1cc(Nc2nc(C[C@@]3(C(=O)O)CCN(Cc4cccc(Cl)c4F)[C@H](C)C3)cc(C)c2F)[nH]n1` — result for “tumour growth inhibition”: 60% (mice, NCI-H69 xenograft; oral, 2.5 mg/kg once daily).
With `CC[C@H](C)[C@H](NC(=O)[C@H](CCC(=O)O)NC(=O)CNC(=O)[C@@H](NC(=O)[C@H](CC(C)C)NC(=O)[C@H](CC(C)C)NC(=O)[C@H](CC(C)C)NC(=O)[C@H](CC(C)C)NC(=O)[C@H](CS)NC(=O)[C@H](CO)NC(=O)[C@H](Cc1ccccc1)NC(=O)CNC(=O)[C@H](CCCNC(=N)N)NC(=O)[C@@H]1CCCN1C(=O)[C@H](C)NC(=O)[C@H](CCSC)NC(=O)CNC(=O)CNC(=O)[C@H](Cc1ccccc1)NC(=O)[C@H](CCCCN)NC(=O)[C@H](Cc1c(C)cc(O)cc1C)NC(=O)[C@H](N)CCCNC(=N)N)[C@@H](C)O)C(=O)N[C@@H](CC(=O)O)C(=O)N[C@@H](CC(C)C)C(=O)N1CCC[C@H]1C(=O)N[C@H](C(=O)N[C@@H](CCCCN)C(=O)N[C@@H](CCCNC(=N)N)C(=O)N[C@@H](CCCNC(=N)N)C(=O)N[C@@H](C)C(N)=O)C(C)C` the escape latency was 34.4 ± 4.1 s (Morris water maze; transgenic AD mice, 10 months; iv, 88.4 nmol/kg/day, after 6 days training).
`CSCCNC(=O)CCC(C)C1CCC2C3C(O)CC4CC(O)CCC4(C)C3CCC12C` (stereo not drawn) — result for serum FGF15: “decreased” (SPF mice, serum; oral gavage, dose not given; relative to: vehicle).
`COc1ccc2c(c1)/C(=N\Nc1nnc3n1N=C(c1ccc(C)cc1)CS3)C(=O)N2` — result for “number of blood vessels”: “decreased” (angiogenesis; hen egg chorioallantoic membrane; 40 µM; relative to: DMSO vehicle).
For `CCCCCCCCCCCCCCCC(=O)N[C@@H](CCC(=O)NCCOCCOCCC(=O)NCCOCCOCCC(=O)NCCCC[C@H](NC(=O)[C@H](CC(=O)O)NC(=O)[C@H](CC(C)C)NC(=O)[C@H](Cc1ccc(O)cc1)NC(=O)[C@H](CCCCN)NC(=O)[C@H](CO)NC(=O)[C@H](Cc1ccc(O)cc1)NC(=O)[C@H](CC(=O)O)NC(=O)[C@H](CO)NC(=O)[C@@H](NC(=O)[C@H](Cc1ccccc1)NC(=O)[C@@H](NC(=O)CNC(=O)[C@H](CCC(N)=O)NC(=O)[C@@H](CO)NC(=O)[C@@H](N)Cc1c[nH]cn1)[C@@H](C)O)[C@@H](C)O)C(=O)N[C@@H](CCCNC(=N)N)C(=O)N[C@@H](CCCNC(=N)N)C(=O)N[C@@H](C)C(=O)N[C@@H](CCC(N)=O)C(=O)N[C@@H](CC(=O)O)C(=O)N[C@@H](Cc1ccccc1)C(=O)N[C@H](C(=O)N[C@@H](CCC(N)=O)C(=O)N[C@@H](Cc1c[nH]c2ccccc12)C(=O)N[C@@H](CC(C)C)C(=O)N[C@@H](CC(C)C)C(=O)N[C@@H](CC(N)=O)C(=O)N[C@H](C(=O)NCC(=O)NCC(=O)N1CCC[C@H]1C(=O)N[C@@H](CO)C(=O)N[C@@H](CO)C(=O)NCC(=O)N[C@@H](C)C(=O)N1CCC[C@H]1C(=O)N1CCC[C@H]1C(=O)N1CCC[C@H]1C(=O)N[C@@H](CO)C(N)=O)[C@@H](C)O)C(C)C)C(=O)O`, cytokine levels read “decreased” (item: IL-1β, IL-6, TNF-α, IL-4, IL-5, IL-13 mRNA; Schistosoma japonicum-infected mice, liver and serum; dose not given).
`CCOP(=O)(OCC)OCCCCOC(=O)CC1=C(C)C(=Cc2ccc([S+](C)[O-])cc2)c2ccc(F)cc21` (stereo not drawn) — result for “decrease in phosphorylation”: 55% (item: phospho-mTOR; nude mice, orthotopic A549 tumour, tumour; inhalation, dose not given; relative to: vehicle).
With `CC[C@H](C)[C@H](NC(=O)[C@H](CCCNC(=N)N)NC(=O)[C@H](Cc1ccc(O)cc1)NC(=O)[C@H](Cc1ccc(O)cc1)NC(=O)[C@@H](N)CCCNC(=N)N)C(=O)N[C@@H](CCCCN)C(N)=O` the ED50 was 0.004 nmol (mechanical allodynia, von Frey; CCI neuropathic mice; intrathecal, 30 min).
Under “spleen weight reduction”, `Cc1cc2c(C(=O)Cc3ccccc3)c(O)c(O)cc2c(O)c1-c1c(C)cc2c(C(=O)Cc3ccccc3)c(O)c(O)cc2c1O` is recorded as about 40% (B6 Bcl-2 transgenic mouse; i.p., 0.06 mmol/kg; relative to: control).
For `CC[C@@]1(O)C(=O)OCc2c1cc1n(c2=O)Cc2cc3cc(OC(=O)CCCC(=O)NCC(=O)N[C@@H](Cc4ccccc4)C(=O)N[C@@H](Cc4ccccc4)C(=O)N[C@@H](Cc4ccc(OP(=O)(O)O)cc4)C(=O)NCCSSCCNC(=O)CCC(=O)N[C@@H](CCC(=O)O)C(=O)N[C@@H](CCCNC(=N)N)C(=O)NCC(=O)N[C@@H](CC(=O)O)C(=O)O)ccc3nc2-1`, the tumour volume was about 5 mm³ (nude mice, HepG2 xenograft; intravenous, 3 mg/kg HCPT equivalent, day 9, three doses, initial 60 mm^3).
Under UGT1A1 expression, `CCN(C)C(=O)Oc1ccccc1/C=C1\Cc2cc(OC)c(OC)cc2C1=O` is recorded as “increased” (C57BL/6J mice, tumour-bearing, irinotecan gut toxicity, colon; dose not given, at high dose, with: irinotecan).
